Experimental data gathered from unrelated publications.
Lines come from different studies, so protocols differ. Numbers after ± are the reported error.
ALB: Albumin (ALB, Bos taurus, UniProt P02769)
Chain of UniProt P02769 (whole entry, looked up): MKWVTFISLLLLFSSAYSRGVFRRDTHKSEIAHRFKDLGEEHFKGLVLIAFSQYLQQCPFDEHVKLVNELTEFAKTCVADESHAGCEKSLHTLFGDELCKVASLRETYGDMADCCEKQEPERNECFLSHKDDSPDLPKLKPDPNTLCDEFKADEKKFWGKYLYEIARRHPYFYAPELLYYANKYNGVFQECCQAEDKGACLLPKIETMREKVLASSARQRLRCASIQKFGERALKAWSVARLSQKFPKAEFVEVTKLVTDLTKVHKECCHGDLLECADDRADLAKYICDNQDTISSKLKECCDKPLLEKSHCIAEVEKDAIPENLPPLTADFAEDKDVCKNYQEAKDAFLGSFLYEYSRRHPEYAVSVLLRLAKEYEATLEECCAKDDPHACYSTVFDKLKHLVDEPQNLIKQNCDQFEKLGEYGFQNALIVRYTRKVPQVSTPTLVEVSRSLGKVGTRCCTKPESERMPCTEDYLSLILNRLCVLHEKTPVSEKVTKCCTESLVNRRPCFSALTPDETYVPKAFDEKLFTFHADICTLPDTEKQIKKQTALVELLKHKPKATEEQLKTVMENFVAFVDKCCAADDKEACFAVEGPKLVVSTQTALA
CYP11A1: Cholesterol side-chain cleavage enzyme, mitochondrial (CYP11A1, Homo sapiens, UniProt P05108)
Chain of UniProt P05108 (whole entry, looked up): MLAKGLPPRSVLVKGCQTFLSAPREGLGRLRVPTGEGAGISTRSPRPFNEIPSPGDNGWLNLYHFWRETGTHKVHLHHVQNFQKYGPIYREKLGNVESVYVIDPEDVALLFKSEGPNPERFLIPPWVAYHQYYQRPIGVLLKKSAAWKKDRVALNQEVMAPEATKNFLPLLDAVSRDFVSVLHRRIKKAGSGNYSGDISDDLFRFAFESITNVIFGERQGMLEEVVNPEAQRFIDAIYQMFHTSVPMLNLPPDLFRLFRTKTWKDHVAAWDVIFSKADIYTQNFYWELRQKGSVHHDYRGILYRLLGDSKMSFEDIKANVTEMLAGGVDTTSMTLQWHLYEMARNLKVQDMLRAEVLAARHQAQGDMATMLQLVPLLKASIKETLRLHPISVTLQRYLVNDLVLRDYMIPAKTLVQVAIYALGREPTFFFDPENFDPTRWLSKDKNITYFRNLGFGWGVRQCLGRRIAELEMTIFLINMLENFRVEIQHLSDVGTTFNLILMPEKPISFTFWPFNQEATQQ
Chain of UniProt P16257 (whole entry, looked up): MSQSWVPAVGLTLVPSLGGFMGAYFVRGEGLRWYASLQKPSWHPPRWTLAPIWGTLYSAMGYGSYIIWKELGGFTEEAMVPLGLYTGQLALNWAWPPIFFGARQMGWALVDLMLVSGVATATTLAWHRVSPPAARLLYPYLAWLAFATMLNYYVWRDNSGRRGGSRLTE
Chain of UniProt P08684 (whole entry, looked up): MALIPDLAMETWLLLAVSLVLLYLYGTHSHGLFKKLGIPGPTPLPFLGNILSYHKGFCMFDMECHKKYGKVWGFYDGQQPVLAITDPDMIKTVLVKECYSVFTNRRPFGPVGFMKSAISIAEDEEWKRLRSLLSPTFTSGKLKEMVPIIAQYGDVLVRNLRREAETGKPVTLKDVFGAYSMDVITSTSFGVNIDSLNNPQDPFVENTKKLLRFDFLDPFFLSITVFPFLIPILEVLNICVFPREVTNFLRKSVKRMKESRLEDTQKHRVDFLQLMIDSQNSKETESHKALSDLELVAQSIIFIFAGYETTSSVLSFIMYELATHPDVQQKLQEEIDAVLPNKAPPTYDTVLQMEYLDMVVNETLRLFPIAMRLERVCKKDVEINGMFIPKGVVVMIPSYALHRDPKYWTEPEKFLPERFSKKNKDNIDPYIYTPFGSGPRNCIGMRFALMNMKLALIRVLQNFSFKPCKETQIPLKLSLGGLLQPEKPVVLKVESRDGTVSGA
Chain of UniProt P04799 (whole entry, looked up): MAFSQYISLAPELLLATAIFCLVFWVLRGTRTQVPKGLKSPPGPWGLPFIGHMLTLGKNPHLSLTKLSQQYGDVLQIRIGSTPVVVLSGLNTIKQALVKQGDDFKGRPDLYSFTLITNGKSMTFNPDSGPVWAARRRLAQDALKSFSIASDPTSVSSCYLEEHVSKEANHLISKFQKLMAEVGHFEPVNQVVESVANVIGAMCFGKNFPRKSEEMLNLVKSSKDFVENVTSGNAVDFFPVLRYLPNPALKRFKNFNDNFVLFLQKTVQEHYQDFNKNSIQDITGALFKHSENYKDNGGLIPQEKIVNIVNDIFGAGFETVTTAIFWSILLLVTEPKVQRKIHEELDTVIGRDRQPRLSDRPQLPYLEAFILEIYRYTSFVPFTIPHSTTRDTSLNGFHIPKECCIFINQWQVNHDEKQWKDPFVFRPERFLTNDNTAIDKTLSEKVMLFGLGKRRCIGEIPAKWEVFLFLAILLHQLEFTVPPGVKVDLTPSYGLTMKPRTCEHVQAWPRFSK
Chain of UniProt P51589 (whole entry, looked up): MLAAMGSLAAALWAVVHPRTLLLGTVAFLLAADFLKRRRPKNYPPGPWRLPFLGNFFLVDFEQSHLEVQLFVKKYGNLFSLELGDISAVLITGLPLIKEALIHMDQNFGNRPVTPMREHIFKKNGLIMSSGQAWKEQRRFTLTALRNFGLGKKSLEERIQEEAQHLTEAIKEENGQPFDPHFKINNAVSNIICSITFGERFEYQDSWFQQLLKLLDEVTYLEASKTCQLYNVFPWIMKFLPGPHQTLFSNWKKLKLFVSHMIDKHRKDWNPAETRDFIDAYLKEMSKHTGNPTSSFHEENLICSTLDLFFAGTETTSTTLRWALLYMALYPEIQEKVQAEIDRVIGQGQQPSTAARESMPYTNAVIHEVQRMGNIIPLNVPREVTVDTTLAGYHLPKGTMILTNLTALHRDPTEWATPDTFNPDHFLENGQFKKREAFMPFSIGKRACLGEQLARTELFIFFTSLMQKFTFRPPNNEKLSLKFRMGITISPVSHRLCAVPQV
Chain of UniProt P04798 (whole entry, looked up): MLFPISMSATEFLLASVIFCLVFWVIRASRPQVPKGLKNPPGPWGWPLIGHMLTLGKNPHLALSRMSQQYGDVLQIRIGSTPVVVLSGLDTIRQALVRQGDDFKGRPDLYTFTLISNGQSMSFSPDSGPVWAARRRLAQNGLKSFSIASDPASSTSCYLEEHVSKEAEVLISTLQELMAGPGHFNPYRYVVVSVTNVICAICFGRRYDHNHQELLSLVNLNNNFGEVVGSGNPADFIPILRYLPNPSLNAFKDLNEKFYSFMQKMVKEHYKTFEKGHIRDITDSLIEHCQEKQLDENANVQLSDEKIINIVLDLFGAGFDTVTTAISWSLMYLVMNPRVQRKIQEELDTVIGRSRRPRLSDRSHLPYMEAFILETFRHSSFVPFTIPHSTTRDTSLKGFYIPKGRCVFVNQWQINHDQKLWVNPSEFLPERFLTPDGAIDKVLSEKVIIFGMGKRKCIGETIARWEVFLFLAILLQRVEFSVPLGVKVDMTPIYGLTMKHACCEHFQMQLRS
Chain of UniProt Q01740 (whole entry, looked up): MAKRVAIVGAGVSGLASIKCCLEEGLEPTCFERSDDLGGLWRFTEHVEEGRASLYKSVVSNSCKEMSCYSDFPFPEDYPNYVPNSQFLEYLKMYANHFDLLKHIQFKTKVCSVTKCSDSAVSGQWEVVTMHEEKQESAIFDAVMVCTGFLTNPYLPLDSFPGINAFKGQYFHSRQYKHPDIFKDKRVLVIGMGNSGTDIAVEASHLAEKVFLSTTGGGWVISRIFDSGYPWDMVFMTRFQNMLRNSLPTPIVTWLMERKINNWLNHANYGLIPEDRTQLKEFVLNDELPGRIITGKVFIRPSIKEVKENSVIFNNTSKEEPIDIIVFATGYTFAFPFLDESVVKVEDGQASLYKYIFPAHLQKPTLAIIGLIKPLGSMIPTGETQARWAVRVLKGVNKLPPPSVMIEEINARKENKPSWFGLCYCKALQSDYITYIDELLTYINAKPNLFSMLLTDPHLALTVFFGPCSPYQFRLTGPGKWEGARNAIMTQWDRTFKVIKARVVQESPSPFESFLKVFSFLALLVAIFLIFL
Chain of UniProt P50225 (whole entry, looked up): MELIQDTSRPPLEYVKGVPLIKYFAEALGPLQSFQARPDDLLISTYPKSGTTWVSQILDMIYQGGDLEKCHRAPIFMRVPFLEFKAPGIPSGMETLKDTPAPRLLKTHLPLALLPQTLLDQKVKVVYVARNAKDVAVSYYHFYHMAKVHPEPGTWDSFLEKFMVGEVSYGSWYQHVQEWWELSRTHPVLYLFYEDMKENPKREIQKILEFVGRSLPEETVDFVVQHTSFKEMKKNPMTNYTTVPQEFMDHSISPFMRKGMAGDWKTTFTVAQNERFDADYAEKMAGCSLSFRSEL

CCC(=O)N(C)c1ccc(Cl)c(Cl)c1
remaining binding (ALB; BSA binding, fluorescence quenching; bovine serum albumin solution; 15 to 150 µM, 1 h, together with: BSA 7.5 µM; relative to: diclofenac): ≤ 25%

CN(C)C(=S)N(C)N=Cc1ccccc1SSc1ccccc1C=NN(C)C(=S)N(C)C
adduct stability time (ALB; optical absorption spectra; together with: BSA 40 µM): ≥ 8 h

COc1c(C(=O)/C=C/c2ccccc2)c(O)c(OC)c2occc12
inhibition (Cytochrome P450 1A1 (CYP1A1, Homo sapiens, UniProt P04798); yeast microsomes; 10 µM): 92%

[64Cu+2].c1cnc(CNCc2ccc(CN3CCCN4CCNCCCN(CC4)CC3)cc2)nc1
tissue uptake (CXCR4; NOD/SCID mouse, U87 and U87-stb-CXCR4 xenografts, kidney; iv, 90 min, no blocking dose, ex vivo): 22.9 ± 1.76 %ID/g

COc1ccc2cc(NC(=O)c3cc(-c4ccncc4)nc4ccccc34)ccc2c1
kcat (Cytochrome P450 3A4 (CYP3A4, Homo sapiens, UniProt P08684); substrate, measured: metabolites M1 plus M2; baculosomes): 0.0172 s⁻¹

COc1cc2oc(-c3ccc(C(F)(F)F)cc3)cc(=O)c2c(O)c1O
log conditional stability constant (Fe(III); spectrophotometric titration; methanol/water 80/20 w/w; 25.0 °C, ionic strength 0.1 M, pH 2.0): 5.3

Cc1cccc(C)c1OCC(N)c1ccccc1 (centres unmarked)
metabolic rate (Flavin-containing monooxygenase 1 (Homo sapiens, UniProt Q01740); substrate; purified enzyme; 88 µM, 30 min, pH 8.4, 37 °C): 0.73 ± 0.01 nmol/min/mg protein

[64Cu+2].c1ccc(CNCc2ccc(CN3CCCN4CCNCCCN(CC4)CC3)cc2)nc1
tissue uptake (CXCR4; NOD/SCID mouse, U87 and U87-stb-CXCR4 xenografts, bladder; iv, 30 min, ex vivo): 2.55 ± 0.58 %ID/g

COc1cc2oc(-c3ccc(F)cc3)cc(=O)c2c(O)c1O
log conditional stability constant (Fe(III); spectrophotometric titration; methanol/water 80/20 w/w; 25.0 °C, ionic strength 0.1 M, pH 2.0): 4.7

C=C1CCC(O)CC1=CC=C1CCCC2(C)C1CCC2C(C)(O)CCCCCC (centres unmarked)
substrate conversion (CYP11A1; substrate; 50 µM, 2 h, 0.45% cyclodextrin, 1 µM enzyme): 91%

O=C(O)[C@@H]1C[C@@H](O)CN1C(=O)[C@@H]1CCCN1
ΔS (iron(III) ion; complex formation, Van't Hoff plot; aqueous 0.15 M NaCl; MAH−2 complex species): -1.73 kJ/mol/K

COc1ccc(S(=O)(=O)N(C)/N=C/c2ccc(C#N)cc2)cc1OC
decrease of metabolism rate (Cytochrome P450 1A2 (Cyp1a2, Rattus norvegicus, UniProt P04799); substrate; Wistar rat liver microsomes; 10 µM, 240 min, 37 °C, together with: furafylline 40 µM): ~50%

CCc1cc(C)n2nc(-c3ccc(OCC[18F])cc3)c(CC(=O)N(CC)CC)c2n1
total distribution volume (Translocator protein (Tspo, Rattus norvegicus, UniProt P16257); two-tissue compartment model; rat C6 glioma model, brain; dose not given, 60 min dynamic PET): 7.42 ± 0.931 mL/cm3

COc1ccc(S(=O)(=O)NCc2c[nH]nc2-c2cccs2)cc1
protein binding (Albumin, lipid-rich (ALB, Bos taurus, UniProt P02769); bovine): 44%

COc1c(C(=O)/C=C/c2ccc(F)cc2)c(O)c(OC)c2occc12
IC50 (CYP2 and CYP3 panel, human; yeast microsomes; 15 min, pH 7.4, value for all nine CYPs): > 20 µM

C=C1CCC(O)CC1=CC=C1CCCC2(C)C1CCC2C(C)(O)c1ccccc1 (centres unmarked)
number of products (CYP11A1; substrate; 50 µM, 2 h, 0.45% cyclodextrin, 1 µM enzyme): 4

[2H]c1c(NS(C)(=O)=O)c([2H])c2c(C(=O)c3ccc(OCCCN(CCCC)CCCC)cc3)c(CCCC)oc2c1[2H]
intrinsic clearance (Cytochrome P450 2J2 (CYP2J2, Homo sapiens, UniProt P51589); recombinant enzyme; 1 µM): 0.65 µL/min/pmol

C=C1CCC(O)CC1=CC=C1CCCC2(C)C1CCC2C(C)(C)O (centres unmarked)
substrate conversion (CYP11A1; substrate; 50 µM, 2 h, 0.45% cyclodextrin, 1 µM enzyme): 0%

O=C(O)C(O)Cc1ccc(O)c(O)c1 (centres unmarked)
relative activity (Sulfotransferase 1A1 (SULT1A1, Homo sapiens, UniProt P50225); sulfation, substrate, cDNA-expressed enzyme; 500 µM, 120 min; relative to: SULT1A3): 30%

O=C(O[C@@H]1Cc2c(O)cc(O)cc2O[C@@H]1c1cc(O)c(O)c(O)c1)c1cc(O)c(O)c(O)c1
remaining compound (ALB; compound stability, HPLC; 25 µM, 40 min, pH 7.4, 37 °C, together with: albumin 30 µM): 65.8%
